{"data": "Experimental data from different studies", "heavy meromyosin HMM": "heavy meromyosin HMM (Oryctolagus cuniculus)", "B1": "CKS1 (Saccharomyces cerevisiae, UniProt P20486); sequence looked up; chain MYHHYHAFQGRKLTDQERARVLEFQDSIHYSPRYSDDNYEYRHVMLPKAMLKVIPSDYFNSEVGTLRILTEDEWRGLGITQSLGWEHYECHAPEPHILLFKRPLNYEAELRAATAAAQQQQQQQQQQQQQQQQHQTQSISNDMQVPPQIS", "B2": "PDHA1/PDHB mature heterotetramer (Homo sapiens); chain 1 FANDATFEIKKCDLHRLEEGPPVTTVLTREDGLKYYRMMQTVRRMELKADQLYKQKIIRGFCHLCDGQEACCVGLEAGINPTDHLITAYRAHGFTFTRGLSVREILAELTGRKGGCAKGKGGSMHMYAKNFYGGNGIVGAQVPLGAGIALACKYNGKDEVCLTLYGDGAANQGQIFEAYNMAALWKLPCIFICENNRYGMGTSVERAAASTDYYKRGDFIPGLRVDGMDILCVREATRFAAAYCRSGKGPILMELQTYRYHGHSMSDPGVSYRTREEIQEVRSKSDPIMLLKDRMVNSNLASVEELKEIDVEVRKEIEDAAQFATADPEPPLEELGYHIYSSDPPFEVRGANQWIKFKSVS; chain 2 LQVTVRDAINQGMDEELERDEKVFLLGEEVAQYDGAYKVSRGLWKKYGDKRIIDTPISEMGFAGIAVGAAMAGLRPICEFMTFNFSMQAIDQVINSAAKTYYMSGGLQPVPIVFRGPNGASAGVAAQHSQCFAAWYGHCPGLKVVSPWNSEDAKGLIKSAIRDNNPVVVLENELMYGVPFEFPPEAQSKDFLIPIGKAKIERQGTHITVVSHSRPVGHCLEAAAVLSKEGVECEVINMRTIRPMDMETIEASVMKTNHLVTVEGGWPQFGVGAEICARIMEGPAFNFLDAPAVRVTGADVPMPYAKILEDNSIPQVKDIIFAIKKTLNI", "B3": "TIF4631 572-853 K590R (Saccharomyces cerevisiae, UniProt P39935); sequence looked up; chain LVPSANRWVPKFKSKKTERKLAPDGKTELLDKDEVERKMKSLLNKLTLEMFDAISSEILAIANISVWETNGETLKAVIEQIFLKACDEPHWSSMYAQLCGKVVKELNPDITDETNEGKTGPKLVLHYLVARCHAEFDKGWTDKLPTNEDGTPLEPEMMSEEYYAAASAKRRGLGLVRFIGFLYRLNLLTGKMMFECFRRLMKDLTDSPSEETLESVVELLNTVGEQFETDSFRTGQATLEGSQLLDSLFGILDNIIQTAKISSRIKFKLIDIKELRHDKNWN", "B4": "Mesd (Mus musculus, UniProt Q9ERE7); chain ADTPGEATPPPRKKKDIRDYNDADMARLLEQWEKDDDIEEGDLPEHKRPSAPIDFSKLDPGKPESILKMTKKGKTLMMFVTVSGNPTEKETEEITSLWQGSLFNANYDVQRFIVGSDRAIFMLRDGSYAWEIKDFLVSQDRCAEVTLEGQMYPGKGGGSKEKNKTKPEKAKKKEGDPKPRASKEDNRAGSRREDL", "note": "Numbers after ± are the reported error. Non-standard residues stand in square brackets, D forms with d. Square brackets hold non-standard residues; d marks the D form. Ends that are not written are not given here. No end group written: not given here.", "UniProt P15873, sequence (whole entry, unmodified, looked up)": "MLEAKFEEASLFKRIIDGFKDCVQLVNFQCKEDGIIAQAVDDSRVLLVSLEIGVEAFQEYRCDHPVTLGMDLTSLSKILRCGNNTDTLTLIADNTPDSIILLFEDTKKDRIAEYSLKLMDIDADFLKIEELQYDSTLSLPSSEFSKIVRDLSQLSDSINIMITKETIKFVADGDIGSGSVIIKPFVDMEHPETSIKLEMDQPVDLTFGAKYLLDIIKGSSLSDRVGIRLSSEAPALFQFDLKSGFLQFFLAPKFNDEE", "UniProt P06400, sequence (whole entry, unmodified, looked up)": "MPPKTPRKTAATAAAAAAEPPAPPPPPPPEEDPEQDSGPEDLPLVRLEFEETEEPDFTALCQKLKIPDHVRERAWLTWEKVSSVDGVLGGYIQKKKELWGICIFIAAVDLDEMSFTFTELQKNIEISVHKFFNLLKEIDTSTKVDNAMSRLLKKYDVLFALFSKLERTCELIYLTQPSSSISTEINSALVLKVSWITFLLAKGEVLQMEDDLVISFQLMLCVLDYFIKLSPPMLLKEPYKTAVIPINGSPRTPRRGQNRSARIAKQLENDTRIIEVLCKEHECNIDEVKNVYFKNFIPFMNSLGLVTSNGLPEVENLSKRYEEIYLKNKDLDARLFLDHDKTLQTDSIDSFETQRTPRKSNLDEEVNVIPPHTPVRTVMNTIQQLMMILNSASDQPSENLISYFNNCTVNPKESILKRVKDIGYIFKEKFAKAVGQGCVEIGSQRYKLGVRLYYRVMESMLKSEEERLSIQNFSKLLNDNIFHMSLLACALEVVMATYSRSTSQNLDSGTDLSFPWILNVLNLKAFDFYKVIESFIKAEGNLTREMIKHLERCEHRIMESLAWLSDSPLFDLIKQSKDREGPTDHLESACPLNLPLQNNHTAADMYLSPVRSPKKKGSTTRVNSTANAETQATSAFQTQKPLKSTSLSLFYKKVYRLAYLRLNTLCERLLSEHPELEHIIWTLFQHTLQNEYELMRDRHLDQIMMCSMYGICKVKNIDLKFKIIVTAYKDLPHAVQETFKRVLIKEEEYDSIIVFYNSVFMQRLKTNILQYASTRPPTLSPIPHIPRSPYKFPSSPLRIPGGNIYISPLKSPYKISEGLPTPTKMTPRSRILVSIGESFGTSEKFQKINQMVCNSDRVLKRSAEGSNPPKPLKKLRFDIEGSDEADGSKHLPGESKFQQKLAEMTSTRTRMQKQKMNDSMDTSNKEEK", "UniProt Q01094, sequence (whole entry, looked up)": "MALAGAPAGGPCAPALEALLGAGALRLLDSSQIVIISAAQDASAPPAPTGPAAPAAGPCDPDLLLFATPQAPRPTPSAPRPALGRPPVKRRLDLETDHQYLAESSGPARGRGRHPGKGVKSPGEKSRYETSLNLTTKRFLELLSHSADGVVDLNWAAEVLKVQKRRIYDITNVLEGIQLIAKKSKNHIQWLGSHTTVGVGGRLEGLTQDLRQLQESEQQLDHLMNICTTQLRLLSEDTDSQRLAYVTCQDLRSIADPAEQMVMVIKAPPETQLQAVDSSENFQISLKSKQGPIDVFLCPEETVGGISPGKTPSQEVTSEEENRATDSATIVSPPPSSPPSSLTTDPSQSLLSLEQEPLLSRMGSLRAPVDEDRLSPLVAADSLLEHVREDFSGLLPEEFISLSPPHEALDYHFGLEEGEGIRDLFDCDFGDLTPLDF", "UniProt P29597, sequence (whole entry, looked up)": "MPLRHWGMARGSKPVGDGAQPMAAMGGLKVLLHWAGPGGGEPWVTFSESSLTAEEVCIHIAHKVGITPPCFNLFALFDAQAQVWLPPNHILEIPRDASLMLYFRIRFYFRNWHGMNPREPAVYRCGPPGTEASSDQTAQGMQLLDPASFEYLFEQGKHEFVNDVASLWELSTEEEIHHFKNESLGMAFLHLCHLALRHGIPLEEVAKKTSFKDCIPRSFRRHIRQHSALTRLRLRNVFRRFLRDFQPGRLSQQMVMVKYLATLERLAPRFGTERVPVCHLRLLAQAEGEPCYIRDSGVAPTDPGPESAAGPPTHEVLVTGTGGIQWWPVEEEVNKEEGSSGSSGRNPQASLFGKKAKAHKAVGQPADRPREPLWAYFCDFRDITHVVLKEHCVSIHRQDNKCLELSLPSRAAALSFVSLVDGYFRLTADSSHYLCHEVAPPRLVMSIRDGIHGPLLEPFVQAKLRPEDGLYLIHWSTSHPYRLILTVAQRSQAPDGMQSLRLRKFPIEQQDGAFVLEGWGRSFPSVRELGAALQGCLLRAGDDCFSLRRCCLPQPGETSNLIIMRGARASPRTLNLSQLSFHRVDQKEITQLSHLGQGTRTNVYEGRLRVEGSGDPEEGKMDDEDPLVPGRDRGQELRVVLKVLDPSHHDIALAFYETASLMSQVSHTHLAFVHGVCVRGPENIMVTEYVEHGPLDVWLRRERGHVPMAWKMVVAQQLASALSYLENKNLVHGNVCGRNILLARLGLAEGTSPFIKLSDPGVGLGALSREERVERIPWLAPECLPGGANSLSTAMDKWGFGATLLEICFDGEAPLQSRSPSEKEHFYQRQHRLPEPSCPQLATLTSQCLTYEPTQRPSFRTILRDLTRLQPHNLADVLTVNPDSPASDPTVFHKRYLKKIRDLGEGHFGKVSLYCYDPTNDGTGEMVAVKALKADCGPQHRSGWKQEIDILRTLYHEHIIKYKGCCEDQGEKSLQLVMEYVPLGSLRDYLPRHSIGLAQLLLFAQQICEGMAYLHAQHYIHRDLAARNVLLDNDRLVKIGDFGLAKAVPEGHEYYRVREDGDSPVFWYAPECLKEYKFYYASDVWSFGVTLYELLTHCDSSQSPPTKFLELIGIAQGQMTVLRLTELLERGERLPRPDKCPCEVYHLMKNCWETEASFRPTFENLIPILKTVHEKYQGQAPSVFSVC", "UniProt Q14790, sequence (whole entry, looked up)": "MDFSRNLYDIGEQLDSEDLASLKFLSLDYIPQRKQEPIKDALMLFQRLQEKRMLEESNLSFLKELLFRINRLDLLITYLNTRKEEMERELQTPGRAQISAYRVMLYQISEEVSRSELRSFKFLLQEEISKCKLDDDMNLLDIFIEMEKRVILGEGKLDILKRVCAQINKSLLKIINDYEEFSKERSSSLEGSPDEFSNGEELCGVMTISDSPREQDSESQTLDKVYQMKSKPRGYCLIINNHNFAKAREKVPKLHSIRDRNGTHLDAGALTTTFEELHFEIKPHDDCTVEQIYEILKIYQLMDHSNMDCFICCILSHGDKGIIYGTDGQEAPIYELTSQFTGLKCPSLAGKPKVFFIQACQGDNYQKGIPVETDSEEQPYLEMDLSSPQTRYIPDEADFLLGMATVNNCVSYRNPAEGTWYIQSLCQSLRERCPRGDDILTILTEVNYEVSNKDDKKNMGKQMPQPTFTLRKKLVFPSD", "UniProt P10081, sequence (whole entry, unmodified, looked up)": "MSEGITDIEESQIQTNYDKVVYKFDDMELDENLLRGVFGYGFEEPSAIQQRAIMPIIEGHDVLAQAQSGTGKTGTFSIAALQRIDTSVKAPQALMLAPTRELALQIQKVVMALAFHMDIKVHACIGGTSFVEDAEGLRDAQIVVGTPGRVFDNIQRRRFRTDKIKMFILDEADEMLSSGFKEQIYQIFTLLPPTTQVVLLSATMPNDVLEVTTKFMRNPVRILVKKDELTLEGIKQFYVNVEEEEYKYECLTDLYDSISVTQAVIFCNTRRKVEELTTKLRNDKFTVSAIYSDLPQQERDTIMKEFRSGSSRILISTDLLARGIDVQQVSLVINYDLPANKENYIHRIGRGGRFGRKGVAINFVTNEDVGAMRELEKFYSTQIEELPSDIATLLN", "UniProt P03956, sequence (whole entry, looked up)": "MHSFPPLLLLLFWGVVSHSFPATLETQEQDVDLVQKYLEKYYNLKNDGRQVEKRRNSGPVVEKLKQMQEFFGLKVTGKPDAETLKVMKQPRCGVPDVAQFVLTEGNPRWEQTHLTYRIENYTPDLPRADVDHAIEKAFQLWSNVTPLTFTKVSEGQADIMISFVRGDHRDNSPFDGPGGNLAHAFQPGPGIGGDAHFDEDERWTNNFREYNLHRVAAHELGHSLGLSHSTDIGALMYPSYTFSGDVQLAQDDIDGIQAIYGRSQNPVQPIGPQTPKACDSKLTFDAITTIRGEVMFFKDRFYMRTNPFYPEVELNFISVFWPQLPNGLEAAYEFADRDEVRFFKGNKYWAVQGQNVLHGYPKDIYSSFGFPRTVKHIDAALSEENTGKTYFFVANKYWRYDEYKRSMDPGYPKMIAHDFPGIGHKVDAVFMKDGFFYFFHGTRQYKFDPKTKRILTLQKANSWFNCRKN", "UniProt P09119, sequence (whole entry, unmodified, looked up)": "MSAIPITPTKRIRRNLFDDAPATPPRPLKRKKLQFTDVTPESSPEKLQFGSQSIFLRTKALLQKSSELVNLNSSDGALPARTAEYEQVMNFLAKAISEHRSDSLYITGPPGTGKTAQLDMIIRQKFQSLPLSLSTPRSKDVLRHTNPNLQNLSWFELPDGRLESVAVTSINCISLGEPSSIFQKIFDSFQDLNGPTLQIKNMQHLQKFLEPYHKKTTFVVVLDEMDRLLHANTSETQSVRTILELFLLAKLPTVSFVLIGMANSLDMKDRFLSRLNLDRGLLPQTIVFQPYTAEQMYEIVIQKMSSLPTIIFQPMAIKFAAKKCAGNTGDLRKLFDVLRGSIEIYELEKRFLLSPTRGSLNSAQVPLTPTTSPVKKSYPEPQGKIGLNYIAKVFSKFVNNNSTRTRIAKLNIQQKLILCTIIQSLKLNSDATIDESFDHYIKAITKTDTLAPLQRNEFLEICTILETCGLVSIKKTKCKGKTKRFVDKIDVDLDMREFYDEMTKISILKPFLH", "UniProt P09038, sequence (whole entry, looked up)": "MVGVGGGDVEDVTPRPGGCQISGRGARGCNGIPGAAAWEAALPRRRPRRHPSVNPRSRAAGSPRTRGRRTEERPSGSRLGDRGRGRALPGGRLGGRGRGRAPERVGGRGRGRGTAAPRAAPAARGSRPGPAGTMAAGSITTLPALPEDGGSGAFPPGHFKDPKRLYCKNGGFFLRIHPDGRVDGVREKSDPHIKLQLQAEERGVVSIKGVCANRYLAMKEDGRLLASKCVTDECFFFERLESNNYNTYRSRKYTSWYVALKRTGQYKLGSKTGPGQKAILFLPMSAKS"}
{"Substance": "B1 (CKS1)", "partner": "Cdc6 2-29 P5K, pT7 (UniProt P09119)", "test": "steady-state kinetics", "how to read": "reference: wild-type peptide, higher = weaker substrate affinity", "quantity": "KM", "result": "3 fold"}
{"Substance": "ACTC1 (Homo sapiens, UniProt P68032)", "partner": "heavy meromyosin HMM", "test": "myosin ATPase activity, steady-state kinetics", "conditions": "together with: ATP 2 mM", "quantity": "Vmax", "result": "10.2 µM/s"}
{"Substance": "TNYLFSPNGPIARAW (TNYL-RAW)", "partner": "EPHB4 16-539 (Homo sapiens, UniProt P54760)", "test": "SPR", "system": "peptide", "quantity": "koff", "result": "0.0013 s⁻¹"}
{"Substance": "GRGDSP (GRGDSP peptide)", "partner": "ITGA5/ITGB1 whole (Homo sapiens)", "test": "competition with ligand, radioligand binding", "system": "peptide", "quantity": "IC50", "result": "5.5 µM"}
{"Substance": "PHF1 fragment (Homo sapiens) (sequence not shown)", "partner": "H3 fragment, K27me3", "test": "ITC", "quantity": "ΔH", "result": "-5.14 ± 0.469 kcal/mol"}
{"Substance": "B2", "partner": "DLAT/PDHX mature 60-mer core (Homo sapiens)", "test": "NADH formation, stopped-flow light scattering", "conditions": "apparent, koff calculated", "quantity": "koff", "result": "0.04 s⁻¹"}
{"Substance": "CCND1/CDK4 fusion, linker (Homo sapiens)", "partner": "RB1 1-892 (Homo sapiens, UniProt P06400)", "test": "in vitro kinase assay", "how to read": "reference: wild-type Rb, higher = greater reduction", "quantity": "phosphorylation reduction", "result": "20 fold"}
{"Substance": "cytochrome c550 mature (Starkeya novella)", "partner": "sorT mature (Sinorhizobium meliloti)", "test": "steady-state kinetics", "conditions": "pH 8.0, together with: cytochrome as electron acceptor", "quantity": "sulfite dehydrogenase activity", "result": "0.6 U/mg"}
{"Substance": "FGF2 (Homo sapiens, UniProt P09038)", "partner": "FGFR3 isoform IIIc (unknown, UniProt Q61851)", "test": "cell proliferation, MTT", "system": "BaF3-FGFR3c", "conditions": "together with: heparin", "quantity": "half-maximal concentration", "result": "2.5 nM"}
{"Substance": "BEND3 (Homo sapiens, UniProt Q5T5X7)", "partner": "ERCC6L E11A/L13A/Y21A (Homo sapiens, UniProt Q2NKX8)", "test": "MST", "how to read": "reference: wild-type full length PICH, higher = weaker binding", "quantity": "relative Kd", "result": "1.5 fold"}
{"Substance": "VSIG4 fragment (Homo sapiens)", "partner": "C3b (Homo sapiens, UniProt P01024)", "test": "alternative-pathway lysis of rabbit erythrocytes, inhibitor", "system": "serum", "conditions": "12%", "quantity": "IC50", "result": "1.6 µM"}
{"Substance": "Xrcc1 fragment (Mus musculus)", "partner": "LIG3 BRCT domain 836-921 (Homo sapiens)", "test": "circular dichroism", "conditions": "heterodimer", "quantity": "apparent Tm", "result": "56.2 °C"}
{"Substance": "ACTC1 R312C (x)", "partner": "heavy meromyosin HMM", "test": "myosin ATPase activity, steady-state kinetics", "conditions": "together with: ATP 2 mM", "quantity": "Vmax", "result": "28 µM/s"}
{"Substance": "SERPINA1 S47C, Texas Red, Alexa Fluor 488", "partner": "trypsin (Bos taurus)", "test": "trypsin inhibition", "quantity": "stoichiometry of inhibition", "result": 1.1}
{"Substance": "B3 (TIF4631 572-853 K590R)", "partner": "TIF1 E135C/G370C, Alexa488/Alexa546 labels (Saccharomyces cerevisiae, UniProt P10081)", "test": "conformation of molecule, smFRET", "quantity": "binding", "result": "binds"}
{"Substance": "ORAI1 (Homo sapiens, UniProt Q96D31)", "partner": "STIM1 339-475 (Homo sapiens, UniProt Q13586)", "test": "store-independent I_CRAC, whole-cell patch clamp", "system": "HEK293", "quantity": "current density", "result": "14.5 pA/pF"}
{"Substance": "NDC80/NUF2 truncated, GFP-fused (Homo sapiens)", "partner": "TUBA1B/TUBB2B taxol-stabilized microtubules", "test": "residence times, single-molecule TIRF microscopy", "conditions": "30 °C", "quantity": "koff", "result": "0.53 s⁻¹"}
{"Substance": "E2F1 (Homo sapiens, UniProt Q01094)", "partner": "RB1 (Homo sapiens, UniProt P06400)", "test": "co-IP", "system": "IMR90, lysate", "conditions": "16 hours, E1A expressing, together with: doxorubicin 2 µM", "how to read": "reference: untreated cells, higher = more bound", "quantity": "E2F1 bound to pRB", "result": "1.6 fold"}
{"Substance": "IDEYFSEQPLKNLAASTSEEQIEKCFIIENISTIA (IFNAR1 478-512 L491A/L492A (Homo sapiens, UniProt P17181))", "partner": "TYK2 23-583 (Homo sapiens, UniProt P29597)", "test": "differential scanning fluorimetry", "system": "peptide", "quantity": "apparent Tm reduction", "result": "> 5 °C"}
{"Substance": "ACTN1 fragment (Homo sapiens)", "partner": "CASP8 (Homo sapiens, UniProt Q14790)", "test": "two-hybrid", "how to read": "higher = stronger interaction", "quantity": "β-galactosidase activity", "result": "0.02 ± 0.02 Miller units"}
{"Substance": "Ac-NATEEM-NH2 (PLCB3 residues 585-590, N-acetyl, C-amide (Homo sapiens); N-acetyl, C-amide)", "partner": "PLCB3 (Homo sapiens, UniProt Q01970)", "test": "ACh-induced Ca2+ level", "system": "peptide, HEK293", "conditions": "100 µM, 1 h", "how to read": "reference: vehicle, higher = stronger reduction", "quantity": "reduction", "result": "32%"}
{"Substance": "ETDKE[pY][pY]TVKD (JAK1 1029-1039; pY1034/pY1035; pY = N[C@@H](Cc1ccc(OP(=O)(O)O)cc1)C(=O)O)", "partner": "PTPN6 243-530 C453S (Homo sapiens, UniProt P29350)", "test": "ITC", "system": "peptide", "conditions": "pH 8.0, 25 °C, NaCl 100 mM", "quantity": "molecule per partner", "result": 0.8}
{"Substance": "RFC1/RFC2/RFC3/RFC4/RFC5 (Saccharomyces cerevisiae)", "partner": "POL30 F185W/K107C/C22S/C30S/C62S/C81S, AEDANS label on cysteine (Saccharomyces cerevisiae, UniProt P15873)", "test": "stopped-flow FRET", "conditions": "together with: ATP", "quantity": "rate of clamp opening", "result": "2 s⁻¹"}
{"Substance": "TIMP2 N-terminal domain S4E/N38Q/V71N/H97R/T99S", "partner": "MMP1 100-269 (Homo sapiens, UniProt P03956)", "test": "fluorogenic substrate cleavage, inhibitor, enzyme inhibition assay", "conditions": "apparent", "quantity": "Ki", "result": "0.00031 µM"}
{"Substance": "RFC1/RFC2/RFC3/RFC4/RFC5 RFC1 284-end (Saccharomyces cerevisiae)", "partner": "POL30 1-258 cysteine at 43, MDCC label (Saccharomyces cerevisiae, UniProt P15873)", "test": "fluorescence titration", "conditions": "400 nM, NaCl 150 mM, no ATP", "quantity": "fraction bound", "result": "> 75%"}
{"Substance": "TUBG1/TUBGCP2/TUBGCP3/TUBGCP4/TUBGCP5/TUBGCP6 complex (Homo sapiens)", "partner": "CDK5RAP2 I104A/E105A (Homo sapiens, UniProt Q96SN8)", "test": "co-IP", "system": "HEK293T", "conditions": "not purified", "how to read": "reference: wild-type full-length CDK5RAP2, higher = more binding", "quantity": "γTuRC-binding activity", "result": "12 fold"}
{"Substance": "CALM1 T26C, Alexa Fluor 568 at C26 (sequence not shown)", "partner": "Camk2d T287A (Rattus norvegicus)", "test": "FRET", "system": "representative cell", "conditions": "500 nM", "quantity": "donor fluorescence lifetime", "result": "2.3 ns"}
{"Substance": "RFC1/RFC2/RFC3/RFC4/RFC5 Rfc1 284-end (Saccharomyces cerevisiae)", "partner": "POL30 1-258 C22S/C62S/C81S/S43C, MDCC on Cys43 (Saccharomyces cerevisiae, UniProt P15873)", "test": "stopped-flow fluorescence", "conditions": "200 nM RFC, 20 °C, together with: ATP 0.5 mM", "quantity": "kobs", "result": "36 s⁻¹"}
{"Substance": "myo1 fragment (Schizosaccharomyces pombe)", "partner": "Arp2/3 complex (Schizosaccharomyces pombe)", "test": "barbed end yield, activator", "conditions": "with and without verprolin", "quantity": "half-maximal concentration", "result": "150 nM"}
{"Substance": "SERPINE1 mature (Homo sapiens, UniProt P05121)", "partner": "HABP2 (Homo sapiens)", "test": "co-IP", "system": "bronchoalveolar lavage fluid", "quantity": "molecule per partner", "result": 1}
{"Substance": "ITGB1 whole (Gallus gallus, UniProt P07228)", "partner": "laminin (Mus musculus, UniProt P19137)", "test": "neuron attachment", "system": "E14 CG neurons", "conditions": "together with: JG22 50 µg/mL", "how to read": "reference: poly-D-lysine, higher = more attachment", "quantity": "attachment", "result": "3%"}
{"Substance": "KATGAA[pT]PKKSAKW (histone H1.4 residues 139-151 (Homo sapiens); pT145; pT = C[C@@H](OP(=O)(O)O)[C@H](N)C(=O)O)", "partner": "PIN1 (Homo sapiens, UniProt Q13526)", "test": "EXSY NMR", "system": "peptide", "conditions": "1 mM peptide, 25 °C", "quantity": "exchange rate constant", "result": "5.5 s⁻¹"}
{"Substance": "B4 (Mesd)", "partner": "LRP6 (Homo sapiens, UniProt O75581)", "test": "transwell assay", "system": "MDA-MB-231, BT549", "conditions": "2 µM, 4 µM", "quantity": "migration inhibition", "result": "85 % inhibition"}
{"note": "Excerpt of the above:"}
{"Substance": "ITGB1 whole (Gallus gallus, UniProt P07228)", "partner": "laminin (Mus musculus, UniProt P19137)", "test": "neuron attachment", "system": "E14 CG neurons", "conditions": "together with: JG22 50 µg/mL", "how to read": "reference: poly-D-lysine, higher = more attachment", "quantity": "attachment", "result": "3%"}
{"Substance": "ACTC1 (Homo sapiens, UniProt P68032)", "partner": "heavy meromyosin HMM", "test": "myosin ATPase activity, steady-state kinetics", "conditions": "together with: ATP 2 mM", "quantity": "Vmax", "result": "10.2 µM/s"}
{"Substance": "FGF2 (Homo sapiens, UniProt P09038)", "partner": "FGFR3 isoform IIIc (unknown, UniProt Q61851)", "test": "cell proliferation, MTT", "system": "BaF3-FGFR3c", "conditions": "together with: heparin", "quantity": "half-maximal concentration", "result": "2.5 nM"}
{"Substance": "B3 (TIF4631 572-853 K590R)", "partner": "TIF1 E135C/G370C, Alexa488/Alexa546 labels (Saccharomyces cerevisiae, UniProt P10081)", "test": "conformation of molecule, smFRET", "quantity": "binding", "result": "binds"}
